Assay results from different studies.
Every numbered part comes from another study and shows a few of its results, in no order.

Sample 1
Target: Sal-like protein 4, full length isoform A (SALL4, Homo sapiens, UniProt Q9UJQ4, residues 1-1053)
UniProt Q9UJQ4, sequence (whole entry, looked up): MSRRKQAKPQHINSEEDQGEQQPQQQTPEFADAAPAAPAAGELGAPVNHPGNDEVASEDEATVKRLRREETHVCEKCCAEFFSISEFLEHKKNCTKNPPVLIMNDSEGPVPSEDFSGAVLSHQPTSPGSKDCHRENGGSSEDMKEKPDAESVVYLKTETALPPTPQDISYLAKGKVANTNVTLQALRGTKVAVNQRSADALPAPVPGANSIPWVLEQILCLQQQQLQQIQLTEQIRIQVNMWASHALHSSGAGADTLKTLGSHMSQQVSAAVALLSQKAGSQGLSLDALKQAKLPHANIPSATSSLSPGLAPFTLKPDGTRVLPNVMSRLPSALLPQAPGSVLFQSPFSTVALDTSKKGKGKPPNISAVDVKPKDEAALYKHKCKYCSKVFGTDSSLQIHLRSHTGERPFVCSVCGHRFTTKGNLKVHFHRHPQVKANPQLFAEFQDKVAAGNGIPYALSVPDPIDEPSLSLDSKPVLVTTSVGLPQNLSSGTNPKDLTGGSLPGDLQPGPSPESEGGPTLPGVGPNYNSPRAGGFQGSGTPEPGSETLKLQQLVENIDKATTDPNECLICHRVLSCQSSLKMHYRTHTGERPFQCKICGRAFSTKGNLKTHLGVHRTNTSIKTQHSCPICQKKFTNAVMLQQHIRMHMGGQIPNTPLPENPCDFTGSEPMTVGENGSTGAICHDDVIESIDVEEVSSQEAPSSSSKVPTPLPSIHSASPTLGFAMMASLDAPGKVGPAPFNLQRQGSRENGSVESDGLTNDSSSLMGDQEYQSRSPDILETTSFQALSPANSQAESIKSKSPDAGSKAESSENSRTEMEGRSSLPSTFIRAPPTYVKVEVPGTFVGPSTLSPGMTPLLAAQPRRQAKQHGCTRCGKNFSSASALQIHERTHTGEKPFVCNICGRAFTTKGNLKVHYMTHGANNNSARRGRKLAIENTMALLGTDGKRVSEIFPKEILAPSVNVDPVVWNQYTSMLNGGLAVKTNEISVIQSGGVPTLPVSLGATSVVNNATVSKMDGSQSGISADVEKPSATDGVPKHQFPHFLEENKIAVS
Technique: universal PBM
Form: double-stranded DNA, one strand shown
Medium: in vitro
Tested at: 600 nM
Setting: 8-mer, flanks averaged, mean of replicates
Direction: higher = stronger binding
For `AGATTTAA`, the E-score was 0.101.
The E-score of `AATGGGGA` is reported as -0.00442.
`AAAGTTGT` has an E-score of 0.207.
`ATGACTTC` has an E-score of 0.181.
With `AATTCTAA` the E-score was 0.3.
`TAGCTGCA` has an E-score of -0.126.
`ACGGAAGA` gave an E-score of -0.0512.
For `ACTTGACC`, the E-score was -0.0693.
With `AACTCGGA` the E-score was -0.062.
`ACGCTCTG` gave an E-score of -0.193.
The E-score of `TACCTGAA` is reported as 0.248.
The E-score of `AACGACAC` is reported as -0.123.
With `CGCGTTAG` the E-score was 0.0468.
For `GAACAGCA`, the E-score was 0.0666.
For `CTCAAAAA`, the E-score was 0.167.
`GATGAAAA` has an E-score of 0.221.
`ACTTAAGT` gave an E-score of 0.0638.
`TATGTACA` gave an E-score of 0.331.
For `AAACTTAT`, the E-score was 0.355.

Sample 2
Target: Histone acetyltransferase KAT6A, winged helix 1, GST fusion (KAT6A, Homo sapiens, UniProt Q92794, residues 1-85)
Technique: protein binding microarray
Form: double-stranded DNA, one strand shown
Medium: in vitro
Tested at: not given
Setting: 8-mer, flanks averaged, mean of 2 arrays, mostly near background
Reference: not given
Direction: higher = stronger binding
Target sequence (chain): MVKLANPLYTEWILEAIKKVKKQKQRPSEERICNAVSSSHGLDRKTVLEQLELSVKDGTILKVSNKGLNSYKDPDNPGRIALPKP
`ATTTGCTC` has an E-score of -0.0659.
`ACCATCAA` has an E-score of -0.112.
For `AAGGATAC`, the E-score was -0.134.
`CTGAGTGC` gave an E-score of -0.0887.
The E-score of `AACGCCAC` is reported as -0.0371.
`GGGTAGAA` has an E-score of 0.0515.
The E-score of `ACGGGTTC` is reported as 0.314.
`CCAGTTGA` gave an E-score of -0.175.
`AAATAGTC` gave an E-score of 0.0004.
With `AGGGGTCA` the E-score was -0.256.
For `CAGTAGGA`, the E-score was -0.14.
`GGCTAATA` has an E-score of 0.0575.
The E-score of `GTCATGAC` is reported as 0.0667.
With `ATGACCCG` the E-score was 0.115.
For `AGTAGTGC`, the E-score was 0.147.
`CCGGGGAA` gave an E-score of 0.263.
With `ATATAACA` the E-score was -0.0407.
`AAGGTGGA` gave an E-score of -0.188.
`GATACGAC` gave an E-score of -0.0293.
For `TCTCAAGA`, the E-score was -0.171.
The E-score of `CTAGGTGA` is reported as -0.221.
For `CATCGTGA`, the E-score was 0.00914.
The E-score of `CCAGGGTC` is reported as -0.197.
`TGAGGGAA` gave an E-score of -0.16.
The E-score of `AGGGTCGC` is reported as 0.0761.

Sample 3
Target: RING finger protein unkempt homolog, zinc fingers 1-6, GST-SBP tag (UNK, Homo sapiens, UniProt Q9C0B0, residues 30-357)
UniProt Q9C0B0, sequence (30-357, looked up): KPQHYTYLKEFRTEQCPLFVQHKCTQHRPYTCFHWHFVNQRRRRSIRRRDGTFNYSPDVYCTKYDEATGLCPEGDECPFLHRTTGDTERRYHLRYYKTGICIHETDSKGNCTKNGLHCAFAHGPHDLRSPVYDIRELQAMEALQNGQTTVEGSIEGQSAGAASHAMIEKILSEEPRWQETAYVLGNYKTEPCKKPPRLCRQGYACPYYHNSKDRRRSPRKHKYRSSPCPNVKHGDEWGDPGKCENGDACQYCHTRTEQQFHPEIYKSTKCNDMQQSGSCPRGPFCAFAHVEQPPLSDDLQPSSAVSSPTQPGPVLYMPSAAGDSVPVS
Technique: RNA Bind-n-Seq
Form: RNA
Medium: in vitro
Tested at: not given
Setting: RNA with constant flanks, human and mouse sites, ends assumed
Reference: input RNA pool
Direction: higher = stronger binding
`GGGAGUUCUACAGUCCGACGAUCUUCUCAGCAUGGGGAAAUAACAGUUCUCAGGGACAGUCUACUCAGAGCUCUGGAUAUAGUAGCAAUUAUGCUUAUGCACCUAGCUCCUUAGGUGGAGCCAUGAUUGAUGGACAGUCAGCUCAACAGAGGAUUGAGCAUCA` gave a bound/input enrichment of 1.2 ratio.
The bound/input enrichment of `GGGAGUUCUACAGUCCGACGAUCGAAGCUUUACAUGAGUUACUCAGUUUUGCUUGAAGCAGUUUAAUACCAUCUAUCAUAAAAGUAGCUACAACGUGUCGUGAGUGGAUUCAUUACAAAUGAGAGAUAUACCAUUUCUCUCUGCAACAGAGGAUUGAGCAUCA` is reported as 0.231 ratio.
For `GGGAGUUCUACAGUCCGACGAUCGGUAACCAGAGAAAAGUUCCUUUCUGAAUGGAGAGCUCUCCUCACUGCUCCAGCACCAUACUUAGAACCCUCACUCUCUUUCAAAAGAAUGGCAGUUGAGAUUCACUGGCCCUCAGGGGACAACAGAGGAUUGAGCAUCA`, the bound/input enrichment was 0.125 ratio.
The bound/input enrichment of `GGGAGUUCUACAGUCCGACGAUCUGUAGCCUUUAUUAAACAGAUCAUGUAUUCUGAUCUCUUGCUGCAGCCACAGUGCAGCUCCAUGUAAACCUACAGGCCAAACCAUUUGUAUCCGGCAUCACUUACUAACACACAACAUGUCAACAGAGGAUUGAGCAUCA` is reported as 0.311 ratio.
`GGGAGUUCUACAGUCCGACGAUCGUAUAUAUAUAUAUUUUUUUUUGCUUAUUUAUAGGUGCUGUAUUUUAUUAUCUGAUUGUUAGGAAGGGAUGAAAGGGGCAAAUAUUCUUUAGAGGGAUAGACUGCCGGCAGUAUUGGGUACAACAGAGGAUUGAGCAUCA` gave a bound/input enrichment of 23.9 ratio.
For `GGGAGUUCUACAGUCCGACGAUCUGGGAAACAGGCAGGAAAGGCUGUGGGGUGGGGGUGGGGGACUGGUGUGGCACCGUGCAAACAAAAUGACAAAUUUCAACUCACAAUCUUUGUAAGAAAAUUGUUCCAGUUUGAAUCUUGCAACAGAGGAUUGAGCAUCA`, the bound/input enrichment was 0.304 ratio.
The bound/input enrichment of `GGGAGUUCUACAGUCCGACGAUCACACAAUAUGAGACCAACAGCAUGGACUUCAAAGUUGGGGCAGAUGGGACAGUCUUCGCCACCCGGGAGCUGCAGGUCCCCUCCGAGCAGGUGGCGUUCACGGUGACUGCAUGGGACAGCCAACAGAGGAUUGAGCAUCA` is reported as 0.256 ratio.
`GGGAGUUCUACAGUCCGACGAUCGGAGGGUGAGCACUGGAGCUGGAAAGGCCAGGAGGGCGGGGCUCGAAGUUGUGGGCGGAGACUAGGGGCGUGGCCAAAUUGAUCGUGUACUGUGAAAGAGGUACAGUGUGUUGCAAAUAGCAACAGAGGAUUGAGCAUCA` gave a bound/input enrichment of 0.677 ratio.
The bound/input enrichment of `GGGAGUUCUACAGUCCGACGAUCUCUCCGCUGAACCCCAUUUCUUCUGUUUCAUAGUGCAGAAGUAUUCUUUCAACUAUAUUUUUAGUGGACUUGUUUUAAUUUUAGAGGAAUUUCCAGUACAGAUGCUGUGAGCUGACAUGGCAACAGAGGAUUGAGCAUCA` is reported as 37.8 ratio.
The bound/input enrichment of `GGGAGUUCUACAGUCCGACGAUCAACCAUCCAGGCCAAAUCAGUGCUGGCUACGCUCCUGUUCUGGAUUGUCACACAGCCCACAUAGCAUGCAAGUUUGCUGAGCUUAAAGAAAAGAUCGAUCGUCGUUCUGGUAAGAAGCUGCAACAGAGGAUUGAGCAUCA` is reported as 0.382 ratio.
`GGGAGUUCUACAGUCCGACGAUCAAUGAGUCUUUGGCCUCAGAGCCUCUCAAAGUGUCCACUUCAAGGGGGGAUCAUCCUCAUUAGCACACAGAUUUUUAAAAAUCAAUUCUCUUGCCAUGCCUCCUAUGUGUUCACAUCUCUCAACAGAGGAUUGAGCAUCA` has a bound/input enrichment of 0.785 ratio.

Sample 4
Target: Interferon regulatory factor 7, full length, phosphomimetic (IRF7, Homo sapiens, UniProt Q92985, residues 1-503, S101K/S471D/S472D/S475D/S476D/S477D/S483D/S484D/S487D)
Technique: protein-binding microarray
Form: double-stranded DNA, one strand shown
Medium: in vitro
Tested at: 250 nM
Setting: 60-bp whole probe
With: salmon DNA 0.4 mg/ml
Reference: random background probes
Direction: higher = stronger binding
All sequences stand within: GCCTAGCAC … GTCTTGATTCGCTTGACGCTGCTG
Target sequence (chain): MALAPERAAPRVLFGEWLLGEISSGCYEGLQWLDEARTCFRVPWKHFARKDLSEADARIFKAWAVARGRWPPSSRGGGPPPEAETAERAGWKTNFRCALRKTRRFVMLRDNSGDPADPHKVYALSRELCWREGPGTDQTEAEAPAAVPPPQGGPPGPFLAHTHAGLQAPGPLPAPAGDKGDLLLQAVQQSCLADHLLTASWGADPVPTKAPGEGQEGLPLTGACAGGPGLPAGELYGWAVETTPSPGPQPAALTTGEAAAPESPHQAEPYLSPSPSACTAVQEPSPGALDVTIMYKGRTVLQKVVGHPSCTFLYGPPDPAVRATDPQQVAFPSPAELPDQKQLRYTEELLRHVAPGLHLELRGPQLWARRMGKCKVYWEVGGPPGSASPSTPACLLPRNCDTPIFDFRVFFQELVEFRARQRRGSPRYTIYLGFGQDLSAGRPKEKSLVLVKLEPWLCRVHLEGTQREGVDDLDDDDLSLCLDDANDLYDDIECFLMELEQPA
`AGGAGAGATTAAGTAACTTAGTGCTAG` has a log fluorescence of -0.619 z-score.
With `GACGGTTTCGGTTCCGGGAAGTGCTAG` the log fluorescence was 12.9 z-score.
The log fluorescence of `GACGGACTGGCGACTGGGGACGTGCTA` is reported as -0.751 z-score.
`ACCAGTTTTCTTTTCATTACGTGCTAG` gave a log fluorescence of 3.45 z-score.
`GACGAACTGGGTTTCGGGACGTGCTAG` gave a log fluorescence of 2.18 z-score.
With `GTTACTTTCTACTTCTCTTTGTGCTAG` the log fluorescence was 2.36 z-score.
`TCAAGAAAGAAAACGGGGAGGTGCTAG` has a log fluorescence of 0.172 z-score.
With `GACGGACTGGGTAACGGGACGTGCTAG` the log fluorescence was -0.579 z-score.
With `AGAATGATCTTCCTTCATGGCGTGCTA` the log fluorescence was -0.117 z-score.
`TCATGTGTCAACTTTCTCACTGTGCTA` gave a log fluorescence of 0.0442 z-score.
For `TTAGGTATCGACTTTCGGTTAGTGCTA`, the log fluorescence was 2.82 z-score.
With `GAATCTCTCATGTTACATTTGTGCTAG` the log fluorescence was 0.921 z-score.
The log fluorescence of `GACGGACTGGACTATCGGGCCGTGCTA` is reported as -0.64 z-score.
`TCAATCCCCAGTCTCATACTGTGCTAG` has a log fluorescence of 0.5 z-score.
With `GACGGCCTGCTTATCCTGACGTGCTAG` the log fluorescence was -0.431 z-score.
With `TCAAATCCCCTTCTACTACTGTGCTAG` the log fluorescence was 0.566 z-score.
For `TAATTTTCATTTTCCAAATGGTGCTAG`, the log fluorescence was 3.5 z-score.
With `TTAGGCTCCCTTTTCCTTTAGTGCTAG` the log fluorescence was 1.68 z-score.

Some of these lines once more (sample 1):
The E-score of `AACGACAC` is reported as -0.123.
With `CGCGTTAG` the E-score was 0.0468.
For `GAACAGCA`, the E-score was 0.0666.
For `CTCAAAAA`, the E-score was 0.167.
`GATGAAAA` has an E-score of 0.221.
`ACTTAAGT` gave an E-score of 0.0638.
